Results collected from several papers.
Values joined by “and” are separate records of one study, mostly repeats; a detail may differ. ± gives the spread as reported.
Chain of UniProt Q9NQU5 (whole entry, looked up): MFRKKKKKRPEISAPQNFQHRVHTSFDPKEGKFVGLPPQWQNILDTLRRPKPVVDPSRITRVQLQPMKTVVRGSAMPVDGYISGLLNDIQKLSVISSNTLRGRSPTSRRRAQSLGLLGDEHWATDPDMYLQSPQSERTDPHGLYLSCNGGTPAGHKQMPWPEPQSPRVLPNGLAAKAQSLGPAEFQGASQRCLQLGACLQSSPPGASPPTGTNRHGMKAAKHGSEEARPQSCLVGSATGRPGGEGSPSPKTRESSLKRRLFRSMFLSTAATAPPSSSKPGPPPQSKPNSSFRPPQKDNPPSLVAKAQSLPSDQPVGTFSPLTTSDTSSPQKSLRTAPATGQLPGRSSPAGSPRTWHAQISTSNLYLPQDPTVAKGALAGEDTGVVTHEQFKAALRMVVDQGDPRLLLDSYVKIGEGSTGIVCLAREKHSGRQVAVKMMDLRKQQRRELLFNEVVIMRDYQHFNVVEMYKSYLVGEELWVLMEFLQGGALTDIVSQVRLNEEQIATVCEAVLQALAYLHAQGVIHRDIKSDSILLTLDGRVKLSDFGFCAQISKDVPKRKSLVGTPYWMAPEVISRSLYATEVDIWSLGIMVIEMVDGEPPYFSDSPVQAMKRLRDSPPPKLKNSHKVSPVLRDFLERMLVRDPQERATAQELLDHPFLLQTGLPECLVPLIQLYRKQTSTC
Chain of UniProt Q9BYP7 (whole entry, looked up): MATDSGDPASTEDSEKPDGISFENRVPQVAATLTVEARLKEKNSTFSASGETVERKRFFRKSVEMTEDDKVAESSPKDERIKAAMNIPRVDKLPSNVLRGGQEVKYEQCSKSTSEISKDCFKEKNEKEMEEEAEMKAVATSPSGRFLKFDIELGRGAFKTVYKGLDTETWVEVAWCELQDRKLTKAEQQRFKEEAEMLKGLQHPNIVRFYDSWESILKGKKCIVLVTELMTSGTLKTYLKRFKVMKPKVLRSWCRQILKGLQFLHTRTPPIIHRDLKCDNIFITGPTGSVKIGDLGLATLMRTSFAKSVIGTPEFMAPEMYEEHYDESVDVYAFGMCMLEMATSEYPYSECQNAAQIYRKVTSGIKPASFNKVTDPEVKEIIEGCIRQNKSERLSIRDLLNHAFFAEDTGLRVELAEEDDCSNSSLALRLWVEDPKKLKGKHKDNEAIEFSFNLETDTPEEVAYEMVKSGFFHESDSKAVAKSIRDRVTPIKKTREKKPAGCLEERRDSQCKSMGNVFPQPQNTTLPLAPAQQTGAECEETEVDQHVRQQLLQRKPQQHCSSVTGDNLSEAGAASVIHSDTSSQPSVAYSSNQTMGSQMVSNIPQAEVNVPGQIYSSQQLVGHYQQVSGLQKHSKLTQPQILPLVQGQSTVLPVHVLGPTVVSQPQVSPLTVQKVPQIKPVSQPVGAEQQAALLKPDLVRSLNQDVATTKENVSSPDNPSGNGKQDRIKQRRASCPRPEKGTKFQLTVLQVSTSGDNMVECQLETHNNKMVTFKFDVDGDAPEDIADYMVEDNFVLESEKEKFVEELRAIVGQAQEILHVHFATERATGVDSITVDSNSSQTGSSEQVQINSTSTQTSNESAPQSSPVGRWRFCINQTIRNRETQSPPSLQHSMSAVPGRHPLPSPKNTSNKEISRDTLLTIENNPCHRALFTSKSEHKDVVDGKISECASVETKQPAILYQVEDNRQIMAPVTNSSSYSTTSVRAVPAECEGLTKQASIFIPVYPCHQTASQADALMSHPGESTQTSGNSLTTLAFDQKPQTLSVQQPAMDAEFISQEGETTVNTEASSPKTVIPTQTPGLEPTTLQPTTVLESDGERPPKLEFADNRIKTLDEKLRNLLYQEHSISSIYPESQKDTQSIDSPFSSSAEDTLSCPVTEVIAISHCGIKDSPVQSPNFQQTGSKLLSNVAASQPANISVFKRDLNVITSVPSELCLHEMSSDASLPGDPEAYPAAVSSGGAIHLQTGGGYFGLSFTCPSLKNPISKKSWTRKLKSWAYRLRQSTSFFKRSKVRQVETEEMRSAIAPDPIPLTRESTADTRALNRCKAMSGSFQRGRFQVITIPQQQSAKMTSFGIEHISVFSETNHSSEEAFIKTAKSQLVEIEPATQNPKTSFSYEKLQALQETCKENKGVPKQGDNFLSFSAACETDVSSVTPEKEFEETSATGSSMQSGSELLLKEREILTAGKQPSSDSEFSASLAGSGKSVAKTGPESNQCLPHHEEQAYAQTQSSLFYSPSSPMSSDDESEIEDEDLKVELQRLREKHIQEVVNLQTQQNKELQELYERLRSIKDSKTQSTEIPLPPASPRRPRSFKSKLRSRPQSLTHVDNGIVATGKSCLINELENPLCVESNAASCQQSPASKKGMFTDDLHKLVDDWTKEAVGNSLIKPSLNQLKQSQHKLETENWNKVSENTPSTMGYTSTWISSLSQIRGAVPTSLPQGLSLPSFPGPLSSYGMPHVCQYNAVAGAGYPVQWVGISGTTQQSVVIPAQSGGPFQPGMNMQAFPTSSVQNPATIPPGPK

| SMILES | tested on | test | system | conditions | how to read | measurement | result |
| --- | --- | --- | --- | --- | --- | --- | --- |
| NC1CCN(C(=O)Oc2ccc(C3CCCC4(C3)OOC3(O4)C4CC5CC(C4)CC3C5)cc2)CC1 (racemic) |  |  | male Sprague-Dawley rat, plasma | oral, 50 mg/kg |  | bioavailability | 27.6% |
| CCCCCCCCCCCCCCCC(=O)N[C@@H](CCC(=O)NCCOCCOCCC(=O)NCCOCCOCCC(=O)NCCCC[C@H](NC(=O)[C@H](CC(=O)O)NC(=O)[C@H](CC(C)C)NC(=O)[C@H](Cc1ccc(O)cc1)NC(=O)[C@H](CCCCN)NC(=O)[C@H](CO)NC(=O)[C@H](Cc1ccc(O)cc1)NC(=O)[C@H](CC(=O)O)NC(=O)[C@H](CO)NC(=O)[C@@H](NC(=O)[C@H](Cc1ccccc1)NC(=O)[C@@H](NC(=O)CNC(=O)[C@H](CCC(N)=O)NC(=O)[C@@H](CO)NC(=O)[C@@H](N)Cc1c[nH]cn1)[C@@H](C)O)[C@@H](C)O)C(=O)N[C@@H](CCCNC(=N)N)C(=O)N[C@@H](CCCNC(=N)N)C(=O)N[C@@H](C)C(=O)N[C@@H](CCC(N)=O)C(=O)N[C@@H](CC(=O)O)C(=O)N[C@@H](Cc1ccccc1)C(=O)N[C@H](C(=O)N[C@@H](CCC(N)=O)C(=O)N[C@@H](Cc1c[nH]c2ccccc12)C(=O)N[C@@H](CC(C)C)C(=O)N[C@@H](CC(C)C)C(=O)N[C@@H](CC(N)=O)C(=O)N[C@H](C(=O)NCC(=O)NCC(=O)N1CCC[C@H]1C(=O)N[C@@H](CO)C(=O)N[C@@H](CO)C(=O)NCC(=O)N[C@@H](C)C(=O)N1CCC[C@H]1C(=O)N1CCC[C@H]1C(=O)N1CCC[C@H]1C(=O)N[C@@H](CO)C(N)=O)[C@@H](C)O)C(C)C)C(=O)O |  | refers to: AST | Sprague-Dawley rat, male | subcutaneous, 100 µg/kg once daily, 14 days |  | serum enzyme activity | 132 ± 37.7 U/L |
| CN1CCCCC1C(=O)NC(Cc1ccc(-c2ccccc2)cc1)B(O)O (centres unmarked) |  |  | male Sprague-Dawley rats, plasma | oral, 1 mg/kg, 24 h, citrate ester |  | AUC(0-t) | 0.835 µM·h |
| COc1ccccc1-c1n[nH]c2nc(NC3CCN(C(=O)Cc4ccc(F)cc4F)CC3)ncc12 |  | bead binding, competition bead pull-down, refers to: LINJ.35.3110 | Leishmania donovani extract | 10 µM | baseline: vehicle | relative abundance | 0.76 |
| Cc1cccc(-c2cccc(C)n2)n1.Cc1cccc(-c2cccc(C)n2)n1.F[P-](F)(F)(F)(F)F.F[P-](F)(F)(F)(F)F.[Ru+2].c1ccc(-c2nc3c4cccnc4c4ncccc4c3[nH]2)cc1 |  |  | aerated acetonitrile | 298 K | baseline: Ru(bpy)3(PF6)2 | singlet oxygen quantum yield | 0.01 |
| COC(=O)[C@H]1[C@@H](c2ccc(Cl)cc2)C[C@@H]2CC[C@H]1N2CCCCCCCCCCCc1c2ccccc2cc2ccccc12 |  | fluorometric titration |  | 1 µM, 10% DMSO |  | pKa | 4.5 |
| CSCC[C@H](N)C(=O)N[C@@H](C)C(=O)N[C@@H](Cc1c[nH]c2ccccc12)C(=O)N[C@@H](Cc1c[nH]cn1)C(=O)N[C@@H](CC(=O)O)C(=O)N[C@@H](CC(=O)O)C(=O)N[C@@H](CCC(=O)O)C(=O)N[C@@H](CCC(=O)O)C(=O)N[C@@H](Cc1ccccc1)C(=O)N[C@@H](C)C(=O)N[C@@H](CCCNC(=N)N)C(=O)N[C@@H](CCCNC(=N)N)C(=O)N[C@@H](CCCNC(=N)N)C(=O)N[C@@H](CCCNC(=N)N)C(=O)NCCCCCC(=O)NCCCCC(NC(=O)CCCCCNC(=O)[C@H](CCCNC(=N)N)NC(=O)[C@H](CCCNC(=N)N)NC(=O)[C@H](CCCNC(=N)N)NC(=O)[C@H](CCCNC(=N)N)NC(=O)[C@H](C)NC(=O)[C@H](Cc1ccccc1)NC(=O)[C@H](CCC(=O)O)NC(=O)[C@H](CCC(=O)O)NC(=O)[C@H](CC(=O)O)NC(=O)[C@H](CC(=O)O)NC(=O)[C@H](Cc1c[nH]cn1)NC(=O)[C@H](Cc1c[nH]c2ccccc12)NC(=O)[C@H](C)NC(=O)[C@@H](N)CCSC)C(=O)NCCCCC(NC(=O)C(CCCCNC(=O)CCCCCNC(=O)[C@H](CCCNC(=N)N)NC(=O)[C@H](CCCNC(=N)N)NC(=O)[C@H](CCCNC(=N)N)NC(=O)[C@H](CCCNC(=N)N)NC(=O)[C@H](C)NC(=O)[C@H](Cc1ccccc1)NC(=O)[C@H](CCC(=O)O)NC(=O)[C@H](CCC(=O)O)NC(=O)[C@H](CC(=O)O)NC(=O)[C@H](CC(=O)O)NC(=O)[C@H](Cc1c[nH]cn1)NC(=O)[C@H](Cc1c[nH]c2ccccc12)NC(=O)[C@H](C)NC(=O)[C@@H](N)CCSC)NC(=O)CCCCCNC(=O)[C@H](CCCNC(=N)N)NC(=O)[C@H](CCCNC(=N)N)NC(=O)[C@H](CCCNC(=N)N)NC(=O)[C@H](CCCNC(=N)N)NC(=O)[C@H](C)NC(=O)[C@H](Cc1ccccc1)NC(=O)[C@H](CCC(=O)O)NC(=O)[C@H](CCC(=O)O)NC(=O)[C@H](CC(=O)O)NC(=O)[C@H](CC(=O)O)NC(=O)[C@H](Cc1c[nH]cn1)NC(=O)[C@H](Cc1c[nH]c2ccccc12)NC(=O)[C@H](C)NC(=O)[C@@H](N)CCSC)C(N)=O (some centres unmarked) |  |  | C57BL/6 mouse female, liver | dose not given, 6 h | baseline: total | mean tissue distribution | 7.44% |
| O=C1NC(=O)c2c1c1cc(F)c[n+]3c1c1c2c2cc(O)ccc2[n]1[Ru-4]312([N]=C=S)[S+]3CC[S+]1CC[S+]2CC3 (centres unmarked) | WNK3 (Homo sapiens, UniProt Q9BYP7) | enzyme activity |  | 100 nM, human enzyme, added: 10 µM ATP | baseline: untreated | remaining activity | 95% |
| CC(CCC(=O)NCC(=O)O)C1CCC2C3C(O)CC4CC(OC5OC(C(=O)O)C(O)C(O)C5O)CCC4(C)C3CCC12C (centres unmarked) |  |  | human men | dose not given, SLCO1B1 *5/*14 |  | plasma concentration | 118 ng/mL |
| O=C1NC2(CC2)COc2ncc(F)cc2[C@H]2COCCN2c2ccn3ncc1c3n2 |  |  | Sprague-Dawley rat, female, serum | oral, 20 mg/kg/day, 4 weeks daily, end of recovery period |  | alkaline phosphatase activity | 46.3 ± 15.5 U/L |
| CCN(CC)CCOc1ccc(-c2nnn(Cc3ccc(OC)cc3)c2N)cc1 |  |  | Sprague-Dawley rat | 100, 200, 400 mg/kg |  | micronucleus formation | negative |
| N#[11C]c1ccc(-c2csc(NN=C3CCCC3)n2)cc1 |  | dynamic PET/CT | C57BL/6 mouse, liver | intravenous, dose not given, 60 min |  | radioactivity uptake | 0.8 SUV |
| CC(C)C[C@H](NC(=O)[C@@H](NC(=O)[C@H](CCCNC(=N)N)NC(=O)[C@H](CCC(N)=O)NC(=O)[C@H](Cc1ccccc1)NC(=O)[C@H](Cc1ccc(O)cc1)NC(=O)[C@H](CC(N)=O)NC(=O)[C@H](Cc1c[nH]c2ccccc12)NC(=O)[C@@H](NC(=O)[C@H](CCCNC(=N)N)NC(=O)[C@H](CCCCN)NC(=O)[C@@H](N)Cc1ccccc1)C(C)C)C(C)C)C(=O)N[C@H](C(=O)N[C@@H](CCCCN)C(=O)N[C@@H](CCCCN)C(=O)N[C@@H](Cc1ccc(O)cc1)C(N)=O)C(C)C |  | reversed-phase UPLC | C18 column, TFA |  |  | elution acetonitrile content | 45.3% |
| CS(C)(=O)=Nc1ccc(-c2ccc(-c3nc4cc(O[C@@H]5CO[C@H]6[C@@H]5OC[C@H]6O)[nH]c4cc3F)cc2)cc1 | PAK6 (Homo sapiens, UniProt Q9NQU5) | enzyme activity, inhibitor |  | 10 µM |  | inhibition | 0% |
| Cn1nc(NS(C)(=O)=O)c2c(Cl)ccc(-n3c([C@H](Cc4cc(F)cc(F)c4)NC(=O)Cn4nc(C(F)F)c5c4C(F)(F)[C@@H]4C[C@H]54)nc4nc(OCCC(F)(F)F)ccc4c3=O)c21 |  |  | human, plasma | oral, 25 mg single dose, powder in bottle, median |  | tmax | 12 h |
| CSCC[C@H](NC(=O)[C@@H](NC(=O)[C@H](CC(C)C)NC(=O)[C@@H](NC(=O)[C@H](Cc1c[nH]cn1)NC(=O)CCCCCNC(=O)[C@H](CCCNC(=N)N)NC(=O)[C@H](CCCNC(=N)N)NC(=O)[C@H](CCCNC(=N)N)NC(=O)[C@H](CCC(N)=O)NC(=O)[C@H](CCCNC(=N)N)NC(=O)[C@H](CCCNC(=N)N)NC(=O)[C@H](CCCCN)NC(=O)[C@H](CCCCN)NC(=O)[C@H](CCCNC(=N)N)NC(=O)CNC(=O)[C@@H](N)Cc1ccc(O)cc1)C(C)C)C(C)C)C(=O)N[C@@H](CS)C(=O)N[C@@H](C)C(=O)N[C@H](C(N)=O)[C@@H](C)O |  |  | C57BL/6J mice | Alzet osmotic pump, 3 mg/kg, 8 weeks |  | ALT | 19 U/L and 24 U/L and 30 U/L |
| CC[C@H](C)[C@H](NC(=O)[C@H](CCCCN)NC(=O)CNC(=O)[C@H](CC(C)C)NC(=O)[C@H](Cc1ccccc1)NC(=O)[C@H](CCCCN)NC(=O)[C@H](CO)NC(=O)[C@H](Cc1ccccc1)NC(=O)[C@H](Cc1c[nH]c2ccccc12)NC(=O)[C@H](CCC(N)=O)NC(=O)[C@@H](NC(=O)[C@H](Cc1ccccc1)NC(=O)CCCCCNC(=O)CN1CCN(CC(=O)O)CCN(CC(=O)O)CCN(CC(=O)O)CC1)C(C)C)C(=O)N[C@@H](CCC(=O)O)C(=O)N1CCC[C@H]1C(=O)N[C@@H](CC(=O)O)C(=O)N[C@H](C(=O)N[C@@H](CO)C(=O)N[C@@H](CCC(N)=O)C(=O)N[C@H](C(=O)N[C@@H](CCC(N)=O)C(=O)N[C@@H](CC(=O)O)C(=O)N1CCC[C@H]1C(=O)N[C@@H](CC(N)=O)C(=O)N[C@@H](CC(=O)O)C(=O)N[C@@H](CCC(N)=O)C(=O)N[C@@H](Cc1ccc(O)cc1)C(=O)N[C@@H](CCC(=O)O)C(=O)N1CCC[C@H]1C(=O)N[C@@H](Cc1ccccc1)C(=O)O)C(C)C)C(C)C [copper-64 labelled] |  |  | GZMB-/- mice, CT26 tumour-bearing, stomach | 2 h, checkpoint inhibitor-treated |  | tissue uptake | 2.02 ± 0.3 %ID/g |
| CC(C)C[C@H](NC(=O)[C@H](Cc1ccc(O)cc1)NC(=O)[C@H](Cc1c[nH]cn1)NC(=O)[C@H](CC(=O)O)NC(=O)[C@H](CC(C)C)NC(=O)[C@H](C)NC(=O)[C@H](CC(C)C)NC(=O)CNC(=O)CNC(=O)[C@@H](NC(=O)[C@@H](NC(=O)[C@H](CCCCN)NC(=O)CNC(=O)[C@@H](NC(=O)[C@H](CCCCN)NC(=O)[C@H](CCCCN)NC(=O)[C@H](C)NC(=O)[C@H](CCCCN)NC(=O)[C@H](CCCNC(=N)N)NC(=O)[C@H](Cc1ccccc1)NC(=O)[C@@H](NC(=O)[C@H](CO)NC(=O)[C@H](CCCCN)NC(=O)[C@H](Cc1c[nH]c2ccccc12)NC(=O)CN)C(C)C)C(C)C)[C@@H](C)O)C(C)C)C(N)=O |  |  | zebrafish embryos 28 hpf, E3 medium | 24 h |  | chronic toxic concentration | 5 µM |
| COc1cnc2cccc(N3CCc4c(cc(Cn5ccnc5)cc4-c4cn(C)nc4C(F)(F)F)C3=O)c2c1 |  |  | BALB/c nude mice, MV4-11 xenograft | intraperitoneal, 100 mg/kg, day 28 |  | body weight | 25.6 g and 22.4 g and 22.1 g and 22.2 g and 24.8 g |
| CCCCCCCCCCCCCCCC(=O)N[C@@H](CCC(=O)NCCCC[C@H](NC(=O)[C@H](CC(=O)O)NC(=O)[C@H](CO)NC(=O)[C@@H](NC(=O)[C@H](Cc1ccccc1)NC(=O)[C@@H](NC(=O)CNC(=O)[C@H](CCC(N)=O)NC(=O)[C@H](C)NC(=O)[C@@H](Cc1ccc(O)cc1)NC(C)=O)[C@@H](C)O)[C@@H](C)O)C(=O)N[C@@H](CO)C(=O)N[C@@H](CCCCN)C(=O)N[C@@H](Cc1ccc(O)cc1)C(=O)N[C@@H](CC(C)C)C(=O)N[C@@H](CC(=O)O)C(=O)N[C@@H](CCC(=O)O)C(=O)N[C@@H](CCCNC(=N)N)C(=O)N[C@@H](C)C(=O)N[C@@H](C)C(=O)N[C@@H](CCC(N)=O)C(=O)N[C@@H](CC(=O)O)C(=O)N[C@@H](Cc1ccccc1)C(=O)N[C@H](C(=O)N[C@@H](CCC(N)=O)C(=O)N[C@@H](Cc1c[nH]c2ccccc12)C(=O)N[C@@H](CC(C)C)C(=O)N[C@@H](CC(C)C)C(=O)N[C@@H](CCC(=O)O)C(=O)NCC(=O)NCC(=O)N1CCC[C@H]1C(=O)N[C@@H](CO)C(=O)N[C@@H](CO)C(=O)NCC(=O)N[C@@H](C)C(=O)N1CCC[C@H]1C(=O)N1CCC[C@H]1C(=O)N1CCC[C@H]1C(=O)N[C@@H](CO)C(N)=O)C(C)C)C(=O)O |  |  | male cynomolgus monkey, plasma | subcutaneous, 0.0211 mg/kg |  | AUC(0-last) | 1200 ng·h/mL |

For quick reference, copied from above:
| SMILES | tested on | test | system | conditions | how to read | measurement | result |
| --- | --- | --- | --- | --- | --- | --- | --- |
| COC(=O)[C@H]1[C@@H](c2ccc(Cl)cc2)C[C@@H]2CC[C@H]1N2CCCCCCCCCCCc1c2ccccc2cc2ccccc12 |  | fluorometric titration |  | 1 µM, 10% DMSO |  | pKa | 4.5 |
| NC1CCN(C(=O)Oc2ccc(C3CCCC4(C3)OOC3(O4)C4CC5CC(C4)CC3C5)cc2)CC1 (racemic) |  |  | male Sprague-Dawley rat, plasma | oral, 50 mg/kg |  | bioavailability | 27.6% |
| O=C1NC2(CC2)COc2ncc(F)cc2[C@H]2COCCN2c2ccn3ncc1c3n2 |  |  | Sprague-Dawley rat, female, serum | oral, 20 mg/kg/day, 4 weeks daily, end of recovery period |  | alkaline phosphatase activity | 46.3 ± 15.5 U/L |
